Experimental data gathered from unrelated publications.
Compare with care: the assays were run in different laboratories. “And” joins repeats or separate records; there may be more than shown. ± gives the spread as reported.
Sequence of UniProt P22290 (whole entry, looked up): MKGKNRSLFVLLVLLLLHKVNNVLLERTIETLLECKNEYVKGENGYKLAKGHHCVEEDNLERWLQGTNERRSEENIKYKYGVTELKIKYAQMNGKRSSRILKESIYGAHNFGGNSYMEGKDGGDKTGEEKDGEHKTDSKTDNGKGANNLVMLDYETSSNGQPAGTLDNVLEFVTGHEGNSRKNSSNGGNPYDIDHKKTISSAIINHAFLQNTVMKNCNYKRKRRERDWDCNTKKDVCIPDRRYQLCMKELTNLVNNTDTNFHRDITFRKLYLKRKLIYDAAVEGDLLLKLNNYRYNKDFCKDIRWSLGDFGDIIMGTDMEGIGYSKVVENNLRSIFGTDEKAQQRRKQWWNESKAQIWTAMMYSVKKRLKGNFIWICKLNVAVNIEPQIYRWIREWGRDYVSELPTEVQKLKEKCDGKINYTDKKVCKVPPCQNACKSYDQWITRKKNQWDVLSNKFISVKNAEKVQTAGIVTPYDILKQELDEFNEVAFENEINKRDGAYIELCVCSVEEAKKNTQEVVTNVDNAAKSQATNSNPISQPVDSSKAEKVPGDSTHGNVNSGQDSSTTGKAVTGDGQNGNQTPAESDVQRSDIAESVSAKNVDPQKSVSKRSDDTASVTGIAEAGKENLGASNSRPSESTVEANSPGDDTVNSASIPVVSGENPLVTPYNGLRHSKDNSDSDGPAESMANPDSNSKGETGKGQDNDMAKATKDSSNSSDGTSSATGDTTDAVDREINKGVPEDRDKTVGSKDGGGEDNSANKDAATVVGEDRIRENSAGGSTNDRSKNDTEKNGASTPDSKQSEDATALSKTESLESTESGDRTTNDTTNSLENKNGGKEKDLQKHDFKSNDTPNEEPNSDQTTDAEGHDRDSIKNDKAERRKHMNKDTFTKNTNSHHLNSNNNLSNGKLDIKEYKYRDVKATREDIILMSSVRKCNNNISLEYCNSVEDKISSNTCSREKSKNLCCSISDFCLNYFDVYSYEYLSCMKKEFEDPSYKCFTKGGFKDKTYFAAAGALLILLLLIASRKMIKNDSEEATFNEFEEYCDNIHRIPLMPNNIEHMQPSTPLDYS

With `O=C(c1ccc(-c2ccnc3[nH]ccc23)o1)N1CCCCC1` the inhibition was 39% (MERS-CoV spike VSV pseudovirus; pseudovirus entry; 10 µM).
The Kd of `PVDR (Plasmodium vivax, UniProt P22290)` is reported as 18.7 ± 1.09 nM (ACKR1 Fc fusion (monkey); BLI).
With `COc1ncc(-c2cn([C@@H]3O[C@](F)(CO[P@@](=O)(N[C@@H](C)C(=O)OC(C)C)Oc4ccccc4)[C@@H](OC(=O)C(C)C)[C@H]3OC(=O)C(C)C)cn2)cn1` the IC50 was 19.6 µM (Zaire ebolavirus; viral replication, reporter virus; Huh-7; 72 h).
`CCOP(=O)(OCC)Oc1ccc([N+](=O)[O-])cc1` has an IC10 of 766 µM (SH-SY5Y; cell viability; 24 h, nominal concentration).
`O=c1ccn([C@@H]2O[C@](F)(CO)[C@@H](O)[C@H]2O)c(=O)[nH]1` gave an EC50 of 780 ± 620 nM (Mammarenavirus lassaense; viral replication; Vero C1008, clade IV Josiah).
The infection of `COc1cc2ncnc(Nc3cccc(Cl)c3)c2cc1OC` is reported as 0.63% and 0.37% and 0.14% (Monkeypox virus; viral infection; replication-deficient; 100 µM; baseline: untreated).
With `CC(C)C(=O)OC[C@@]1(F)O[C@@H](n2cnc(-c3c[nH]c(=O)nc3N)c2)[C@H](OC(=O)C(C)C)[C@@H]1OC(=O)C(C)C` the IC50 was 66.6 µM (Zaire ebolavirus; viral replication, reporter virus; Huh-7; 72 h).
With `CC(C)[C@H]1C(=O)O[C@H](C(C)C)C(=O)N(C)[C@@H](C(C)C)C(=O)O[C@H](C(C)C)C(=O)N(C)[C@@H](C(C)C)C(=O)O[C@H](C(C)C)C(=O)N1C` the tissue concentration was 0.45 ± 0.01 µg/kg (LC-MS/MS; CB-17 scid/scid mice, serum; intraperitoneal, 5 mg/kg, 24 h after last dose, daily dosing).
